Measured values from different studies.
Protocols differ between the studies behind these lines.
Organism: Escherichia coli

For `CC[C@H](C)[C@H](NC(=O)[C@@H](CCCNC(=N)N)NC(=O)[C@H](CCCNC(=N)N)NC(=O)[C@@H]1CCCN1C(=O)[C@@H]1CCCN1C(=O)[C@H](Cc1ccccc1)NC(=O)[C@@H]1CCCN1C(=O)[C@H](CCCNC(=N)N)NC(=O)[C@@H]1CCCN1C(=O)[C@H](CC(C)C)NC(=O)[C@H](Cc1ccc(O)cc1)NC(=O)[C@@H]1CCCN1C(=O)[C@@H]1CCCN1C(=O)[C@H](CCCCN)NC(=O)[C@H](CC(=O)O)NC(=O)[C@@H](N)C(C)C)C(=O)N[C@@H](Cc1ccc(O)cc1)C(=O)N[C@@H](CC(N)=O)C(=O)N[C@H](CCCNC(=N)N)C(N)=O`, the MIC was 16 µg/mL (broth microdilution; BW25113; 18 h, 37 °C, 25% MHB2).
`CC(C)C[C@@H](NC(=O)[C@@H](CCCNC(=N)N)NC(=O)[C@H](N)CCCNC(=N)N)C(=O)N[C@H](CC(C)C)C(=O)N[C@H](CCCNC(=N)N)C(=O)N[C@H](CCCCN)C(=O)N[C@H](CC(C)C)C(=O)N[C@H](CCCCN)C(=O)NCC(=O)N[C@H](CCCCN)C(=O)N[C@H](CCCCN)C(=O)N[C@H](CC(C)C)C(=O)N[C@H](Cc1ccc(O)cc1)C(=O)N[C@H](CC(C)C)C(=O)N[C@H](Cc1ccc(O)cc1)C(=O)N[C@H](Cc1ccccc1)C(=O)N[C@H](CCCCN)C(=O)N[C@H](CC(C)C)C(=O)N[C@H](CCC(N)=O)C(=O)N[C@H](CC(C)C)C(=O)N[C@H](CC(C)C)C(=O)N[C@H](CCCCN)C(=O)N[C@H](CCCCN)C(N)=O` gave an MIC of 16 µM (broth microdilution; KCTC 1682, Mueller-Hinton broth; together with: FeCl3 4 µM).
For `C[C@H](CS)C(=O)Nc1cccc(-c2nn[nH]n2)c1`, the MIC was greater than 64 µg/mL (DH5a pET28-lacUV5-VIM-2; 25 µM, no meropenem).
`CC[C@H](C)[C@H](NC(=O)[C@@H](CCCNC(=N)N)NC(=O)[C@H](CCCNC(=N)N)NC(=O)[C@H](Cc1ccc(O)cc1)NC(=O)[C@H](Cc1c[nH]c2ccccc12)NC(=O)[C@H](CCCNC(=N)N)NC(=O)[C@@H]1CCCN1C(=O)[C@H](CCCNC(=N)N)NC(=O)[C@@H]1CCCN1C(=O)[C@H](CC(C)C)NC(=O)[C@H](Cc1ccc(O)cc1)NC(=O)[C@@H]1CCCN1C(=O)[C@@H]1CCCN1C(=O)[C@H](CCCCN)NC(=O)[C@H](CC(=O)O)NC(=O)[C@@H](N)C(C)C)C(=O)N[C@@H](Cc1ccc(O)cc1)C(=O)N[C@@H](CC(N)=O)C(=O)N[C@H](CCCNC(=N)N)C(N)=O` gave an MIC of 16 µg/mL (broth microdilution; MC4100; 18 h, 37 °C, 25% MHB2).
The MIC of `CO[C@@H](C(N)=O)[C@H](NC(=O)c1ccc(NC(=O)[C@@H](N)Cc2ccccc2)cc1)C(=O)Nc1ccc(C(=O)Nc2ccc(C(=O)Nc3ccc(C(=O)O)c(O)c3OC(C)C)c(O)c2OC(C)C)cc1` is reported as 0.063 µg/mL (monooxygenase clone; 16 h, 37 °C).
`CC(C)C[C@H](NC(=O)[C@H](CCCCN)NC(=O)[C@H](CCCCN)NC(=O)[C@H](Cc1ccccc1)NC(=O)[C@H](CC(C)C)NC(=O)[C@H](CCCCN)NC(=O)[C@H](CCCCN)NC(=O)[C@H](Cc1ccccc1)NC(=O)[C@H](CCCCN)NC(=O)[C@H](CCCCN)NC(=O)[C@H](CCCNC(=N)N)NC(=O)[C@H](Cc1ccccc1)NC(=O)[C@H](CCCNC(=N)N)NC(=O)[C@H](CCCCN)NC(=O)[C@H](Cc1ccccc1)NC(=O)[C@H](CCCNC(=N)N)NC(=O)CN)C(=O)N[C@@H](CO)C(=O)N[C@@H](Cc1c[nH]cn1)C(=O)N[C@@H](Cc1c[nH]cn1)C(=O)N[C@@H](Cc1c[nH]cn1)C(=O)N[C@@H](Cc1c[nH]cn1)C(=O)N[C@@H](Cc1c[nH]cn1)C(=O)O` gave an MIC of 5 µM (broth microdilution; M/14072, Mueller-Hinton broth).
With `N=C(N)NCCC[C@H](NC(=O)[C@H](CCCNC(=N)N)NC(=O)[C@H](Cc1ccccc1)NC(=O)[C@H](CO)NC(=O)[C@H](Cc1ccccc1)NC(=O)[C@H](Cc1c[nH]c2ccccc12)NC(=O)[C@H](Cc1ccccc1)NC(=O)[C@H](CO)NC(=O)[C@H](Cc1ccccc1)NC(=O)[C@H](CCCNC(=N)N)NC(=O)[C@@H](N)CCCNC(=N)N)C(N)=O` the MIC was 128 µM (broth microdilution; 25922, Mueller-Hinton broth; 24 h, 37 °C, lowest concentration, 95% inhibition, together with: BSA).
`CC(C)C[C@@H](NC(=O)[C@H](NC(=O)[C@@H](CCCCN)NC(=O)[C@@H](CCCCN)NC(=O)[C@@H](CC(C)C)NC(=O)[C@@H](Cc1c[nH]c2ccccc12)NC(=O)[C@@H](CCCCN)NC(=O)[C@@H](CC(C)C)NC(=O)[C@@H](CC(C)C)NC(=O)[C@@H](CCCCN)NC(=O)[C@@H](CCCCN)NC(=O)[C@H](N)C(C)C)C(C)C)C(N)=O` has an MIC of 16 µM (24 h, 37 °C, Mueller-Hinton broth, CaCl2 2.5 mM).
The MIC of `CC[C@H](C)[C@H](NC(=O)[C@@H](CCCNC(=N)N)NC(=O)[C@H](CCCNC(=N)N)NC(=O)[C@@H]1CCCN1C(=O)[C@@H]1CCCN1C(=O)[C@H](CCCNC(=N)N)NC(=O)[C@@H]1CCCN1C(=O)[C@H](CCCNC(=N)N)NC(=O)[C@@H]1CCCN1C(=O)[C@H](CC(C)C)NC(=O)[C@H](Cc1ccc(O)c([N+](=O)[O-])c1)NC(=O)[C@@H]1CCCN1C(=O)[C@@H]1CCCN1C(=O)[C@H](CCCCN)NC(=O)[C@H](CC(=O)O)NC(=O)[C@@H](N)C(C)C)C(=O)N[C@@H](Cc1ccc(O)cc1)C(=O)N[C@@H](CC(N)=O)C(=O)N[C@H](CCCNC(=N)N)C(N)=O` is reported as 16 µg/mL (broth microdilution; ATCC 25922; 18 h, 37 °C, 25% MHB2).
`CC1(C)[C@H](NC(=O)/C(=N\OCc2c(Cl)cccc2Cl)c2nsc(N)n2)C(=O)N1OS(=O)(=O)O` gave an MIC of 32 µg/mL (agar dilution; CDC 1001728, NDM-1).
The MIC of `CC[C@H](C)[C@H](NC(=O)[C@@H](CCCNC(=N)N)NC(=O)[C@H](CCCNC(=N)N)NC(=O)[C@H](Cc1c[nH]cn1)NC(=O)[C@H](Cc1c[nH]c2ccccc12)NC(=O)[C@H](CCCNC(=N)N)NC(=O)[C@@H]1CCCN1C(=O)[C@H](CCCNC(=N)N)NC(=O)[C@@H]1CCCN1C(=O)[C@H](CC(C)C)NC(=O)[C@H](Cc1ccc(O)cc1)NC(=O)[C@@H]1CCCN1C(=O)[C@@H]1CCCN1C(=O)[C@H](CCCCN)NC(=O)[C@H](CC(=O)O)NC(=O)[C@@H](N)C(C)C)C(=O)N[C@@H](Cc1ccc(O)cc1)C(=O)N[C@@H](CC(N)=O)C(=O)N[C@H](CCCNC(=N)N)C(N)=O` is reported as 8 µg/mL (broth microdilution; MC4100; 18 h, 37 °C, 25% MHB2).
For `CC[C@H](C)[C@H](NC(=O)[C@H](Cc1c[nH]c2ccccc12)NC(=O)c1ccccc1)C(=O)N[C@H](C(=O)N[C@@H](Cc1ccc(O)cc1)C(=O)N[C@@H](CCCCN)C(=O)N[C@@H](Cc1c[nH]c2ccccc12)C(=O)N1CCC[C@@H]1C(=O)N[C@@H](CCCNC(=N)N)C(=O)N[C@@H](CCCCN)C(=O)N[C@H](C(=O)N[C@H](C(=O)N[C@@H](CCCNC(=N)N)C(=O)N[C@@H](Cc1ccc(O)cc1)C(=O)N[C@@H](Cc1c[nH]c2ccccc12)C(=O)N[C@H](C(=O)NCC(=O)N[C@@H](CCCCN)C(=O)N[C@@H](CCCNC(=N)N)C(N)=O)[C@@H](C)O)C(C)C)C(C)C)C(C)C`, the MIC was 100 µM (DH5α; 16 h, 37 °C).
`CCn1c(-c2ccc(OC)cc2)c(-c2ccc(OC)cc2)n(CC)c1=[Se]` has an MIC of greater than 40 µM (broth microdilution; carbapenem-resistant BAA-2140; 24 h).
With `CC[C@H](C)[C@H](NC(=O)[C@@H]1CCCN1C(=O)[C@H](CS)NC(=O)[C@H](Cc1ccc(O)cc1)NC(=O)[C@@H]1CCCN1C(=O)[C@H](CC(C)C)NC(=O)[C@H](CCCNC(=N)N)NC(=O)[C@H](CO)NC(=O)[C@H](Cc1ccc(O)cc1)NC(=O)[C@H](Cc1ccccc1)NC(=O)[C@H](CC(N)=O)NC(=O)[C@H](CCCNC(=N)N)NC(=O)[C@H](CS)NC(=O)[C@H](Cc1ccc(O)cc1)NC(=O)[C@H](CO)NC(=O)CNC(=O)[C@H](CO)NC(=O)[C@@H]1CCCN1C(=O)[C@H](CC(C)C)NC(=O)[C@H](Cc1ccc(O)cc1)NC(=O)[C@H](C)NC(=O)[C@@H]1CCCN1C(=O)[C@H](CCCNC(=N)N)NC(=O)CN)C(=O)N[C@@H](CCCNC(=N)N)C(=O)NCC(=O)NCC(=O)N[C@@H](Cc1c[nH]cn1)C(=O)N[C@@H](CS)C(=O)N[C@@H](CCCNC(=N)N)C(=O)O` the MIC was 141 µg/mL (broth microdilution; K88, Mueller-Hinton broth; 37 °C).
`CC[C@H](C)[C@H](NC(=O)[C@@H](NC(=O)[C@H](CCCCN)NC(=O)[C@H](CCCCN)NC(=O)[C@@H](NC(=O)[C@H](Cc1c[nH]c2ccccc12)NC(=O)[C@H](CCCCN)NC(=O)[C@@H](NC(=O)[C@H](CC(C)C)NC(=O)[C@H](CCCCN)NC(=O)[C@H](CCCCN)NC(=O)[C@@H](N)C(C)C)[C@@H](C)CC)[C@@H](C)CC)C(C)C)C(N)=O` has an MIC of 128 µM (24 h, 37 °C, Mueller-Hinton broth, CaCl2 2.5 mM).
The MIC of `CC[C@H](C)[C@@H]1NC(=O)CNC(=O)[C@H](CCCNC(=N)N)NC(=O)[C@H](Cc2ccc(O)cc2)NC(=O)[C@@H]2CSSC[C@H](NC1=O)C(=O)N[C@@H](Cc1ccc(O)cc1)C(=O)N[C@@H](CCCNC(=N)N)C(=O)N[C@@H](CCCNC(=N)N)C(=O)N[C@H](C(=O)N[C@@H](CCCNC(=N)N)C(N)=O)CSSC[C@H](NC(=O)[C@H](Cc1c[nH]c3ccccc13)NC(=O)[C@@H](N)CCCCN)C(=O)N[C@@H](Cc1ccccc1)C(=O)N[C@@H](CCCNC(=N)N)C(=O)N[C@@H](C(C)C)C(=O)N2` is reported as 3.1 µM (bacterial growth, broth dilution, OD600; DH5α, LB medium; 16 h, 37 °C).
With `CC[C@H](C)[C@H](NC(=O)[C@@H](CCCNC(=N)N)NC(=O)[C@H](CCCNC(=N)N)NC(=O)[C@@H]1CCCN1C(=O)[C@@H]1CCCN1C(=O)[C@H](CCCNC(=N)N)NC(=O)[C@@H]1CCCN1C(=O)[C@H](CCCNC(=N)N)NC(=O)[C@@H]1CCCN1C(=O)[C@H](CC(C)C)NC(=O)[C@H](Cc1ccc(O)cc1)NC(=O)[C@H](Cc1c[nH]cn1)NC(=O)[C@@H]1CCCN1C(=O)[C@H](CCCCN)NC(=O)[C@H](CC(=O)O)NC(=O)[C@@H](N)C(C)C)C(=O)N[C@@H](Cc1ccc(O)cc1)C(=O)N[C@@H](CC(N)=O)C(=O)N[C@H](CCCNC(=N)N)C(N)=O` the MIC was 8 µg/mL (broth microdilution; MC4100; 18 h, 37 °C, 25% MHB2).
For `CCCCCCCC[C@@H]1NC(=O)[C@@H](Cc2ccccc2)NC(=O)[C@H](CCN)NC(=O)[C@@H](NC(=O)[C@H](CCN)NC(=O)[C@@H](NC(=O)[C@H](CCN)NC(=O)CCCCCCC)[C@@H](C)O)CCNC(=O)[C@H]([C@@H](C)O)NC(=O)[C@H](CCN)NC(=O)[C@H](CCN)NC1=O`, the MIC was 1 to 2 µg/mL (broth microdilution; mcr-1, colistin-resistant).
`CC(C)C[C@@H]1NC(=O)[C@H](CCCCN)NC(=O)CNC(=O)[C@H]2CCCN2C(=O)[C@H](CCCCN)NC(=O)[C@H](CC(C)C)NC(=O)[C@H](CCCCN)NC(=O)[C@H](CC(C)C)NC(=O)[C@H](CCCCN)NC(=O)C(N)CCC=CCCC(C(N)=O)NC(=O)[C@H](CCCCN)NC(=O)[C@H](CC(C)C)NC(=O)[C@H](CCCCN)NC1=O` (stereo partly shown) gave an MIC of 8 µM (broth microdilution; ATCC 25922, Mueller-Hinton broth; 18 h, 37 °C).
